Measured values of several laboratories.
Each line is one published result; not all experiments were run side by side. Several values in a cell are separate wells, animals, samples, runs or records. ± marks the error that the study gave.
uidA: Beta-glucuronidase (uidA, Escherichia coli, UniProt P05804)
Sequence of UniProt P20231 (whole entry, looked up): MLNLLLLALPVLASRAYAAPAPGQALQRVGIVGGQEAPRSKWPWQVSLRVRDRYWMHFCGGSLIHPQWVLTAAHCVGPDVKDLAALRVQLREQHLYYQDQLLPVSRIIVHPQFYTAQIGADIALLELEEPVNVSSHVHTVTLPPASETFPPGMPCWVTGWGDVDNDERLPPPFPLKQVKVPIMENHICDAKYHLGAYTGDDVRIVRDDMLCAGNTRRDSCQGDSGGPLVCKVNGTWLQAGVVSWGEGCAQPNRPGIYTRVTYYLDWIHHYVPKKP
Sequence of UniProt P05804 (whole entry, looked up): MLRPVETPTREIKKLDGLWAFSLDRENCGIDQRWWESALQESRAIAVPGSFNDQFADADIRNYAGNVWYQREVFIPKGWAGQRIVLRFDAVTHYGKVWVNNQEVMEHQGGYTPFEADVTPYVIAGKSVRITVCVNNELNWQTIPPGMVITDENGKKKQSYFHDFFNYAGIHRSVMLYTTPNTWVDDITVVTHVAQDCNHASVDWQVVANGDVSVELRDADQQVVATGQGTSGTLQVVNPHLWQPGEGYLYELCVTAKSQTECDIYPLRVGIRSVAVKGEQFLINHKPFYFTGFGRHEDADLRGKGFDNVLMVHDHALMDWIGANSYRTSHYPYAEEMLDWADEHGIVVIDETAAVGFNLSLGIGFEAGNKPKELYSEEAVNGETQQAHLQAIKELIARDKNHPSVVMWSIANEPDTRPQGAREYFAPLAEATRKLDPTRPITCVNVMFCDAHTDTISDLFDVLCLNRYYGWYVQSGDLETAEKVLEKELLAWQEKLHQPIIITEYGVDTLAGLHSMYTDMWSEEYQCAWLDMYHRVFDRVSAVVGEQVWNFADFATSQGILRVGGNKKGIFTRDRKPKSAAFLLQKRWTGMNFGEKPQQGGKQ
Sequence of UniProt P03303 (whole entry, looked up): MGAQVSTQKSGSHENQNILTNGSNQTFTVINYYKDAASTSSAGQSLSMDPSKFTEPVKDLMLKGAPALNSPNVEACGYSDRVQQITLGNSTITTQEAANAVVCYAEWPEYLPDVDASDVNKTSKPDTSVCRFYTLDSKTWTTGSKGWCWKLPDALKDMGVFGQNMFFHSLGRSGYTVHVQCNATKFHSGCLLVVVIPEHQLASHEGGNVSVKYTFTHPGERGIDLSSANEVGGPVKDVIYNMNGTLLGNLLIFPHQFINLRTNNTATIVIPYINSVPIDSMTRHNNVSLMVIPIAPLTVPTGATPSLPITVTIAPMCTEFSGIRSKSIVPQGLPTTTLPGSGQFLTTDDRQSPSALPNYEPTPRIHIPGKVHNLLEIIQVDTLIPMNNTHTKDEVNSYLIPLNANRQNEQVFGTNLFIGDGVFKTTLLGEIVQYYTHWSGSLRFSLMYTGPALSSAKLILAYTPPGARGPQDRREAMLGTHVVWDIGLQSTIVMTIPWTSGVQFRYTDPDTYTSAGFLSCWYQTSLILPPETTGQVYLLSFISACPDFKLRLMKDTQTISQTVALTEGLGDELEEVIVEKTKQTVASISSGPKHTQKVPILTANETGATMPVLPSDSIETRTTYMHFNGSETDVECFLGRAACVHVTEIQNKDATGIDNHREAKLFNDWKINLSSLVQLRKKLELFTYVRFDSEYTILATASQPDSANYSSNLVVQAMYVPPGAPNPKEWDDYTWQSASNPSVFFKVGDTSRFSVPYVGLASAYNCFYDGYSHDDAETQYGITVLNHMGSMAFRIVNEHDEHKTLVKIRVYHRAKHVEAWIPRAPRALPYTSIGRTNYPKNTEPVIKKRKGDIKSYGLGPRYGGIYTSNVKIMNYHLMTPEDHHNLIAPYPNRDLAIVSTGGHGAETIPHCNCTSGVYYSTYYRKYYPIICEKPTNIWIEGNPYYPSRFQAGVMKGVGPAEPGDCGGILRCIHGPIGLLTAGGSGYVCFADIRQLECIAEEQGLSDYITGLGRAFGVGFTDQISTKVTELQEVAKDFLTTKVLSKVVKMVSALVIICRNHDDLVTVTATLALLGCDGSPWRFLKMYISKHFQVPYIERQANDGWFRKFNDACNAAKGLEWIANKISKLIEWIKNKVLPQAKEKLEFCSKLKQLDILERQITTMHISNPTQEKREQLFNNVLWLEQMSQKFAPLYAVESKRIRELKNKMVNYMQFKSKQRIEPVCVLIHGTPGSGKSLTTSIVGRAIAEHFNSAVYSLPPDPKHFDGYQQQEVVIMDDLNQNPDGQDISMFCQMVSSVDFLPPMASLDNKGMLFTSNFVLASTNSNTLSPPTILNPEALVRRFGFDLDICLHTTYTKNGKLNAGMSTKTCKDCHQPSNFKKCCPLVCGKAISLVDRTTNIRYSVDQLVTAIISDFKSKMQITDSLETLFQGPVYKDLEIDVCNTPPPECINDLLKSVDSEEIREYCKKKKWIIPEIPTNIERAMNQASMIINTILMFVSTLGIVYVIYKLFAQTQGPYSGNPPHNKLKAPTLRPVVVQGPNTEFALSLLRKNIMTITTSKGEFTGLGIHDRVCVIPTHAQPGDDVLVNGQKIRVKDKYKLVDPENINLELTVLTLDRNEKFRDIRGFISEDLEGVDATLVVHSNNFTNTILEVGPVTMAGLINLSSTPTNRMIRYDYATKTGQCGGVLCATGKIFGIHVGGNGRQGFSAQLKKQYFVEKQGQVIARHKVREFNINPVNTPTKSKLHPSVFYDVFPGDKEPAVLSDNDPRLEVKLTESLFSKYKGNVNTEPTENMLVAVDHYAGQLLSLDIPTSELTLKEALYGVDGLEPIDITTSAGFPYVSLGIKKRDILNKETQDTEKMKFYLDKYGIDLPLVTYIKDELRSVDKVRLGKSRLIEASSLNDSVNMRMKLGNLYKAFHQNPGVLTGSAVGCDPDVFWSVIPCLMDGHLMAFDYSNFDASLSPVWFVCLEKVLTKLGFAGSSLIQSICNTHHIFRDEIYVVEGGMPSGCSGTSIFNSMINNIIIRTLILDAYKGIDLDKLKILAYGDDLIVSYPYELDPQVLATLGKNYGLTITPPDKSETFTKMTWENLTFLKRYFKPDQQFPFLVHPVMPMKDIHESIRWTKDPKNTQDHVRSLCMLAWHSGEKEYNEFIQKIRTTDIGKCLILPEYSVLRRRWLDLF
Sequence of UniProt P61244 (whole entry, looked up): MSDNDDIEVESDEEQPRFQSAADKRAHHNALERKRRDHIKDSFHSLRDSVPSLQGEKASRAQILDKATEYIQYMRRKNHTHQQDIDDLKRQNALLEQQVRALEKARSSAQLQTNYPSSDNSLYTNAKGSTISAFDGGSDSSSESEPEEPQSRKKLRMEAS
Sequence of UniProt P31641 (whole entry, looked up): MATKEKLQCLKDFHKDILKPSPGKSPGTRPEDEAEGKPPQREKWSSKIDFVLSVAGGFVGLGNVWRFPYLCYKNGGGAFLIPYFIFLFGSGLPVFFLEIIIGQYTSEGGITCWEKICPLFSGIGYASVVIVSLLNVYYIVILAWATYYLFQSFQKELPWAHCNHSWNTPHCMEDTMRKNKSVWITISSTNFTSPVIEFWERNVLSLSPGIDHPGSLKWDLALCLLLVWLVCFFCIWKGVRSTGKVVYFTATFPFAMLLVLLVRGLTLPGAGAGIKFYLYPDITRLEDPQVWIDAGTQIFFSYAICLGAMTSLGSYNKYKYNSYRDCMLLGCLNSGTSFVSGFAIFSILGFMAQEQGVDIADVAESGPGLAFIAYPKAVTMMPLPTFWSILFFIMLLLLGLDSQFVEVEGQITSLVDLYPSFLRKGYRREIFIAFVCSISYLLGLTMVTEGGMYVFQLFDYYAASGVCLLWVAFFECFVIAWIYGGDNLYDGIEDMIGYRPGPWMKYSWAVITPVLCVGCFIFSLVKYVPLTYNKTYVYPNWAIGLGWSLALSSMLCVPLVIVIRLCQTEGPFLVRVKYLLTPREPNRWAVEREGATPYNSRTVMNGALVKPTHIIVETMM
Sequence of UniProt P08684 (whole entry, looked up): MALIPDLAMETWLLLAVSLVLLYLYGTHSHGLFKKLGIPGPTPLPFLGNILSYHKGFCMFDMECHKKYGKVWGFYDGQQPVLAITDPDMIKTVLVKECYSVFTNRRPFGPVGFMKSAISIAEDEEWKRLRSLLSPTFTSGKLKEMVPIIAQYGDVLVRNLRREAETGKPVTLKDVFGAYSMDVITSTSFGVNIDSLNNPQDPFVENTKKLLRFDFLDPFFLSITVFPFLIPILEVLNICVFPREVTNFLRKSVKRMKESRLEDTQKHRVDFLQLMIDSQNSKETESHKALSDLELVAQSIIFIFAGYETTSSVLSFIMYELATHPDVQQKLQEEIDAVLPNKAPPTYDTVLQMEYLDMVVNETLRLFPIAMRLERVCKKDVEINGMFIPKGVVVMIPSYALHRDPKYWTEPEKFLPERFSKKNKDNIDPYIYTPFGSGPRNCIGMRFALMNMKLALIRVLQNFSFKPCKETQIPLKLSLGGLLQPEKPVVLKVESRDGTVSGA
Sequence of UniProt P28065 (whole entry, looked up): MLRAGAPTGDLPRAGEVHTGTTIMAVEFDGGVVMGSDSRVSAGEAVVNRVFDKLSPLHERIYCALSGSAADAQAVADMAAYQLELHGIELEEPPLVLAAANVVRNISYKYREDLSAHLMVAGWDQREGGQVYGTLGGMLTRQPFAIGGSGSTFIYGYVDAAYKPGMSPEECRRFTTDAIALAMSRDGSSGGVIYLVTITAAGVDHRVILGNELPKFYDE
Sequence of UniProt P21729 (whole entry, looked up): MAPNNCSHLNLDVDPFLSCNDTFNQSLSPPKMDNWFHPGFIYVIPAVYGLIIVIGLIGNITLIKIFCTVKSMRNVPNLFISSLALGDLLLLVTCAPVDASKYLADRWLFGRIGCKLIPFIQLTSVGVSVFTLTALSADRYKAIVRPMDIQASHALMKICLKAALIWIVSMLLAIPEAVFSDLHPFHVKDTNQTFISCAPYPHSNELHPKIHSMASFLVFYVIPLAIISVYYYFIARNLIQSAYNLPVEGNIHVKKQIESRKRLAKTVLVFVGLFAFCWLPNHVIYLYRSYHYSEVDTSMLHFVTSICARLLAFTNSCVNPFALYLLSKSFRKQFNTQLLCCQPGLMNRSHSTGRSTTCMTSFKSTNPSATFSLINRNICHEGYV

SMILES | target or system | test | test system | conditions | measurement | result
CCC(C)SSc1ncc[nH]1 (stereo not shown) | Genome polyprotein, 3C protease (Human enterovirus 71, UniProt B9VUU3) | protease activity, inhibitor, FRET | Enterovirus A71 | no DTT | IC50 | 4.1 ± 1.9 µM
N=C(N)NC(=O)c1ccc(C(=O)NCCCC[C@H](NC(=O)CNC(=O)CCC(=O)NN)C(=O)N[C@@H](Cc2c[nH]c3ccccc23)C(=O)N[C@@H](CCCCN)C(N)=O)[nH]1 | Tryptase beta-2 (TPSB2, Homo sapiens, UniProt P20231) |  |  | pH 7.4 | IC50 | 24.5 µM and ~25 µM
CN1C(=O)[C@H](Cc2ccc(O)cc2)NC(=O)CNC(=O)[C@H](Cc2ccc(O)cc2)NC(=O)[C@H](CCC(=O)O)NC(=O)[C@H](Cc2ccc(O)cc2)N(C)C(=O)[C@H](Cc2ccc(O)cc2)N(C)C(=O)[C@H](CCC(N)=O)NC(=O)[C@H](Cc2c[nH]c3ccccc23)NC(=O)[C@H](Cc2ccc(O)cc2)NC(=O)[C@@H](Cc2ccc(O)cc2)NC(=O)CSC[C@@H](C(N)=O)NC(=O)[C@H](CCCCN)NC(=O)[C@@H]1Cc1ccc(O)cc1 | ipgm-1 (Caenorhabditis elegans, UniProt G5EFZ1) | enzyme activity |  |  | AC50 | 13.5 µM
CNc1ccc2c(n1)sc1c(N3CCNCC3)nc(NC)nc12 | uidA | enzyme activity, inhibitor, absorbance |  | pH 7.5 | IC50 | 0.08 µM
C[C@@H]1CN(c2nnnc3c2sc2nc(N4CCOCC4)c4c(c23)CCCC4)CCN1 | uidA | enzyme activity, inhibitor |  |  | IC50 | 0.8 µM
CC(=O)N[C@H]1CSC(=O)[C@H](Cc2ccccc2)NC(=O)[C@H](CC(C)C)NC(=O)[C@H](CO)NC(=O)[C@H](CO)NC1=O | agrC (Staphylococcus aureus, UniProt O07911) |  |  |  | IC50 | 0.0959 µM
COc1ccc(C[C@H]2C(=O)N[C@@H](CC(N)=O)C(=O)N[C@@H](CC(=O)O)C(=O)N[C@@H](CO)C(=O)NCC(=O)N[C@@H](Cc3c[nH]c4ccccc34)C(=O)N(C)[C@@H](Cc3ccc(O)cc3)C(=O)N[C@@H](CC(N)=O)C(=O)N[C@@H]([C@@H](C)O)C(=O)N(C)[C@@H](Cc3ccccc3)C(=O)N[C@H](C(N)=O)CSCC(=O)N[C@@H](Cc3ccc(O)cc3)C(=O)N2C)cc1 | 2,3-bisphosphoglycerate-independent phosphoglycerate mutase (gpmI, Staphylococcus aureus, UniProt Q6GIL5) | enzyme activity |  |  | AC50 | 0.174 µM
Cc1ccc2nc(C(F)(F)F)c(C(=O)NCc3cccc(Cl)c3)n2c1 | Cytochrome P450 3A4 (CYP3A4, Homo sapiens, UniProt P08684) | enzyme activity, inhibitor |  | with: VR substrate | IC50 | 43 µM
CCCOc1ccc2ccccc2c1/C=C/c1nc(O)c([N+](=O)[O-])c(=O)[nH]1 | ACP3 (Homo sapiens, UniProt P15309) | enzyme activity, inhibitor |  |  | IC50 | 6.7 µM
N#CCc1cccc(Cl)c1-c1ccc2[nH]c(=O)[nH]c2c1 | GRIA1/CACNG8 (Homo sapiens, UniProt P42261+Q8WXS5) | glutamate-induced calcium flux, inhibitor, FLIPR | HEK293 cells |  | IC50 | 0.0195 µM
CC(C)[C@H](NC(=O)N[C@H](C(=O)N[C@H]1/C=C/CCNC(=O)/C=C/[C@H](C(C)C)NC1=O)C(C)C)C(=O)O | Proteasome subunit beta type-9 (Homo sapiens, UniProt P28065) | inhibitor |  | human immunoproteasome, with: Ac-PAL-AMC | IC50 | 0.76 µM
CCC(=O)N(C)c1ccc(Cl)c(Cl)c1 | Escherichia coli | Ames test | WP2 uvrA | 0.05 mg/plate, with rat liver S9 | revertants | 41 ± 9.7 revertants/plate
CCCC[C@H](NC(=O)CNC(=O)CNC(=O)c1ccc(NN)nc1)C(=O)N[C@H]1CC(=O)NCCCC[C@@H](C(N)=O)NC(=O)[C@H](Cc2c[nH]c3ccccc23)NC(=O)[C@H](CCCNC(=N)N)NC(=O)[C@@H](Cc2ccccc2)NC(=O)[C@H](Cc2c[nH]cn2)NC1=O [technetium-99m labelled] |  |  | C57 mouse, B16/F1 melanoma, pancreas | 2 h, with: NDP-MSH 6.07 nmol blockade | uptake | 0.05 ± 0.04 %ID/g
Cc1cc(C)nc(Sc2nc3sccn3c2[N+](=O)[O-])n1 | Genome polyprotein, 3C protease (rhinovirus B14, UniProt P03303) | 3C protease activity, SAMDI-MS | human rhinovirus |  | IC50 | 4.94 µM
CN[C@](C)(C[18F])C(=O)O | MDA-MB-468 tumour model |  | host not given, bone | 2 h, tumour-bearing | tracer uptake | 1.3 %ID/g
CC(C)C[C@H](NC(=O)[C@H](CC(=O)O)NC(=O)CNC(=O)[C@H](CCCNC(=N)N)NC(=O)[C@H](CC(C)C)NC(=O)[C@H](CC(N)=O)NC(=O)[C@@H]1CCCN1C(=O)[C@@H](NC(=O)[C@H](C)NC(=O)[C@H](CC(N)=O)NC(=O)CCOCCOCCOCCOCCOCCOCCOCCOCCOCCOCCOCCOCCOCCOCCOCCOCCOCCOCCOCCOCCOCCOCCOCCOCCOCCOCCOCCOCCNC(=O)CN1CCN(CC(=O)O)CCN(CC(=O)O)CC1)C(C)C)C(=O)N[C@@H](CCC(N)=O)C(=O)N[C@H](C(=O)N[C@@H](CC(C)C)C(=O)N[C@@H](C)C(=O)N[C@@H](CCC(N)=O)C(=O)N[C@@H](CCCNC(=N)N)C(=O)N[C@H](C(=O)N[C@@H](C)C(=O)N[C@@H](CCCNC(=N)N)C(=O)N[C@H](C(=O)NCCOCCOCCOCCOCCOCCOCCOCCOCCOCCOCCOCCOCCOCCOCCOCCOCCOCCOCCOCCOCCOCCOCCOCCOCCOCCOCCOCCOCCC(N)=O)[C@@H](C)O)C(C)C)C(C)C | Integrin alpha-V/beta-6 (Homo sapiens, UniProt P06756+P18564) | binding, competitive ELISA |  | with: biotinylated latency-associated peptide | IC50 | 0.007 ± 0.003 µM
CN1CCN(Cc2ccc(NC(=O)c3ccc(C(C)(C)C)c(C#Cc4cnc5cccnn45)c3)cc2C(F)(F)F)CC1 | RIPK3 (Homo sapiens, UniProt Q9Y572) | enzyme activity, inhibitor, ADP-Glo kinase |  | 20 ng enzyme | IC50 | > 10 µM
CC[C@H](C)[C@H](NC(=O)[C@H](CCC(=O)O)NC(=O)[C@H](C)NC(=O)[C@H](C)NC(=O)[C@H](CC(C)C)NC(=O)[C@@H](NC(=O)[C@H](CCC(=O)O)NC(=O)[C@@H](NC(=O)[C@H](CCC(=O)O)NC(=O)[C@H](CC(=O)O)NC(=O)[C@H](C)NC(C)=O)[C@@H](C)O)C(C)C)C(=O)N[C@H]1CSCc2cccc(c2)CSC[C@@H](C(=O)N[C@@H](CCC(N)=O)C(=O)N[C@H](C(=O)N[C@@H](CCC(N)=O)C(=O)N[C@@H](CCC(=O)O)C(=O)N[C@@H](CCC(=O)O)C(=O)N[C@@H](CC(=O)O)C(=O)N2CCC[C@H]2C(=O)N[C@@H](CC(N)=O)C(=O)NCCC(=O)N[C@@H](CCCCNC(=O)CCCC[C@@H]2SC[C@@H]3NC(=O)N[C@@H]32)C(N)=O)C(C)C)NC(=O)[C@H](C(C)C)NC(=O)[C@H](C)NC(=O)[C@H](CCCCN)NC1=O | Protein max, homodimer bound to E-box (MAX, Homo sapiens, UniProt P61244) | DNA binding, EMSA |  | with: DNA 40 nM | IC50 | 1.94 ± 0.71 µM
C[C@@](O)(C(F)F)[C@H](NC(=O)c1ccc(C#CC#CC2CC2)cc1)C(=O)NO |  |  | dog, plasma | intravenous, 10 mg/kg | half-life | 1.4 h
CCCNC(=O)[C@H](CC(C)C)NC(=O)[C@H](Cc1c[nH]cn1)NC(=O)CNC(=O)[C@@H](NC(=O)[C@H](C)NC(=O)[C@H](Cc1c[nH]c2ccccc12)NC(=O)[C@H](CCC(N)=O)NC(=O)[C@@H](Cc1ccccc1)NC(=O)CCCCCNC(=O)CN1CCN(CC(=O)O)CCN(CC(=O)O)CCN(CC(=O)O)CC1)C(C)C [indium-111 labelled] | Gastrin-releasing peptide receptor (Mus musculus, UniProt P21729) | biodistribution | CF-1 mice, bladder | intravenous, 1 h, with: bombesin 100 µg, blocking | tissue uptake | 1.96 ± 1.39 %ID/g
O=C(O)Cc1c[nH]cn1 | SLC6A6 (Homo sapiens, UniProt P31641) | transporter uptake, inhibitor, radiometric |  |  | IC50 | 180 µM
NC[C@@H](CC[C@H](N)C(=O)O)C[C@H]1O[C@@H](n2cnc3c(N)ncnc32)[C@H](O)[C@@H]1O | EHMT2 (Homo sapiens, UniProt Q96KQ7) | enzyme activity, inhibitor, radiometric |  |  | IC50 | > 50 µM

Repeated from above:
SMILES | target or system | test | test system | conditions | measurement | result
CCCOc1ccc2ccccc2c1/C=C/c1nc(O)c([N+](=O)[O-])c(=O)[nH]1 | ACP3 (Homo sapiens, UniProt P15309) | enzyme activity, inhibitor |  |  | IC50 | 6.7 µM
